# Published values of several laboratories.
# Compare with care: the assays were run in different laboratories. “And” joins repeats or separate records; there may be more than shown. ± gives the spread as reported.
# PRKCA: Protein kinase C alpha type (PRKCA, Homo sapiens, UniProt P17252)
# EPHX2: Bifunctional epoxide hydrolase 2 (EPHX2, Homo sapiens, UniProt P34913)
# T1: miRNA, hairpin closed by GAAA loop (Homo sapiens); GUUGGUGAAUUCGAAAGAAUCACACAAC
Compound,target,assay,test system,conditions,how to read,measurement,value
N=C(N)NCCC[C@@H]1NC(=O)[C@H](Cc2c[nH]c3ccccc23)NC(=O)[C@H](CCCNC(=N)N)NC(=O)[C@H](Cc2c[nH]c3ccccc23)NC(=O)[C@H](CCCNC(=N)N)NC(=O)[C@H](Cc2c[nH]c3ccccc23)NC(=O)[C@H](CCCNC(=N)N)NC(=O)[C@H](Cc2c[nH]c3ccccc23)NC(=O)[C@H](CCCNC(=N)N)NC(=O)[C@H](Cc2c[nH]c3ccccc23)NC(=O)[C@H](CCCNC(=N)N)NC(=O)[C@H](Cc2c[nH]c3ccccc23)NC(=O)[C@H](CCCNC(=N)N)NC(=O)[C@H](Cc2c[nH]c3ccccc23)NC(=O)[C@H](CCCNC(=N)N)NC(=O)[C@H](Cc2c[nH]c3ccccc23)NC(=O)[C@H](CCCNC(=N)N)NC(=O)[C@H](Cc2c[nH]c3ccccc23)NC1=O,PRKCA,"enzyme activity, inhibitor",,5 µM,,remaining activity,5%
Cc1cc(C(=O)CN2C(=O)CCC2=O)c(C)n1Cc1ccccc1,"S1PR2 (Homo sapiens, UniProt O95136)","reporter gene, agonist",,,,Emax,95%
Cc1ncsc1-c1ccc(C2(NC(=O)C3CC(O)CN3C(=O)C(NC(=O)c3ccc(COc4c(-c5c(C)c(F)cc6[nH]ncc56)c(C5CC5)cc5c(N6CC7CC6CN7)nc(OC6CCOCC6)nc45)cc3)C(C)(C)C)CC2)cc1 (centres unmarked),"GTPase KRas (KRAS, Homo sapiens, UniProt P01116, G12D)","degrader, immunoblot",AsPC-1,24 h,,effective degradation concentration,~1 µM
CC(=O)N1CCN(C(=O)c2ccc(NC(=O)NC34CC5CC(C)(CC(C)(C5)C3)C4)cc2)CC1,EPHX2,,,,,lipophilic ligand efficiency,6.84
O=C(NC[C@@H](Cc1ccccc1)N1CCC(O)(C(F)(F)F)CC1)C1(c2ccc(Cl)cc2)CCCC1,"TRPA1 (Homo sapiens, UniProt O75762)",calcium influx,HEK293F transiently expressing TRPA1,,,Hill slope,1.5 and 1.4
C=CC(=O)N1C[C@H](C)N(c2nc(OC[C@@]34CCCN3C[C@H](F)C4)nc3c(F)c(-c4ccc(F)c5sc(N)nc45)c(C(F)(F)F)cc23)C[C@H]1C,"GTPase KRas, GppNHp-bound (KRAS, Homo sapiens, UniProt P01116, C118S/G12C)",MALDI-TOF MS,,"15 min, GppNHp-loaded",,covalent modification,> 90%
COCCOC(=O)Nc1ccc2c(c1)c(Cc1ccc(C(=O)NS(=O)(=O)c3ccc(C(F)(F)F)cc3)cc1OC)cn2C,"Tumor necrosis factor receptor superfamily member 1A, extracellular domain (Homo sapiens, UniProt P19438)","binding, 19F NMR",,,,Hill coefficient,1.32
N#CCC(=O)N1CCN(C(=S)c2ccc(-c3cc(Cl)ccc3Cl)o2)CC1,"NPR2 (Homo sapiens, UniProt P20594)","HTRF, item: cGMP",HEK293 overexpressing GC-B,together with: subthreshold CNP,baseline: saturating CNP,Emax,62%
CCCCCCCCCCCCCCCOC(=O)/C=C/c1cc(O)c(O)c(OC)c1,PRKCA,"membrane translocation, immunoblotting",MDA-MB-231,"IC50, 30 min",baseline: untreated,cytosolic PKC alpha,16.6 ± 1.7%
[11CH3]Nc1ccc(-c2nc3ccc(O)cc3o2)cn1,"APP (Homo sapiens, UniProt P05067)","binding, PET, reference Logan","Alzheimer's disease patients, anterior cingulate cortex",,baseline: cerebellum,distribution volume ratio,1.46 ± 0.14
CCCCCCCCCc1nc2cc(Cl)ccc2c(=O)n1O,Staphylococcus aureus membranes,di-8-ANEPPS fluorescence ratio,,40 µM,,membrane dipole potential change,increased
CONC(=O)C1CCN(C(=O)c2ccc(NC(=O)NC34CC5CC(C)(CC(C)(C5)C3)C4)cc2)CC1,EPHX2,,,,,lipophilic ligand efficiency,6.6
CCCCCCCC(=O)Nc1ccc(N(C)C)nc1C,"FAAH (Homo sapiens, UniProt O00519)","enzyme activity, substrate",,"50 µM, pH 8, 37 °C",,specific activity,210 pmol/min/µg
CC(C)(C)CCN1C[C@@H]2[C@@H](CNC(=O)c3cc(Cl)cc(Cl)c3)[C@@H]2C1.Cl,"CACNA1C (Oryctolagus cuniculus, UniProt P15381)",whole-cell patch clamp,"HEK-293T, transfected",5 µM,,Gmax,0.21 ± 0.067 nS/pF
O[C@@H]1[C@@H](O)[C@H](O[C@@H]2OC[C@@H](O)[C@H](O)[C@H]2O)C[C@H]2O[C@@H]12,"Probable endo-1,4-beta-xylanase C (xlnC, Aspergillus niger, UniProt C5J411)","activity-based probe binding, competitive inhibitor, in-gel fluorescence","Aspergillus niger, xylan-induced secretome","concentration not given, band near 30 kDa, together with: Cy5 xylobiose activity-based probe",,probe labelling,inhibited
CC(C)CC(NC(=O)C(NC(=O)NC(C(=O)O)C(C)C)C1CCNC(=N)N1)C(=O)NCCCNC(C(=O)O)C(OC1OC(CN)C(O)C1O)C1OC(n2ccc(=O)[nH]c2=O)C(O)C1O (centres unmarked),"mraY (Aquifex aeolicus, UniProt O66465, F262A)",ITC,,F262A mutant,,ΔH,-4.9 ± 0.8 kcal/mol
CC(C)Cn1c(SCC(=O)N2CCc3ccccc3C2)nc2cc(Cl)ccc2c1=O,"CRHR1 (Homo sapiens, UniProt P34998)","calcium signal, antagonist",,together with: CRF at EC80,,IC50,inactive
C=CC[C@H]1OC(=O)CCNC(=O)[C@H](C)N(C)C(=O)[C@H]([C@@H](C)CC)N(C)C(=O)[C@H]([C@@H](C)CC)NC(=O)[C@@H]2[C@@H](C)CCN2C1=O,"Platelet-derived growth factor receptor beta, extracellular domain (PDGFRB, Homo sapiens, UniProt P09619, F136A/F138A)","binding, surface plasmon resonance",,concentration not given,baseline: wild-type PDGFR-β,KD fold change,~20.2 fold
CC[C@H](C)[C@H](NC(=O)CNC(C)=O)C(=O)N[C@@H](CCCNC(=N)N)C(=O)N[C@@H](CCC(=O)O)C(=O)N[C@@H](C)C(=O)N[C@H](C(=O)N[C@@H](CC(C)C)C(=O)N[C@@H](CCCNC(=N)N)C(=O)N[C@@H](C)C(=O)N[C@@H](Cc1c[nH]c2ccccc12)C(=O)N[C@@H](CCC(=O)O)C(=O)N[C@@H](CCCNC(=N)N)C(=O)N[C@@H](CCCNC(=N)N)C(=O)N[C@@H](Cc1ccc(O)cc1)C(=O)NCC(N)=O)[C@@H](C)O,"Antirepressor protein CarS (carS, Myxococcus xanthus, UniProt Q06911)",ITC,,"concentration not given, pH 7.5, 25 °C",,binding enthalpy,-12 ± 0.22 kcal/mol
c1c[nH]c(-c2ccc3c(n2)[nH]c2ccccc23)c1,"ALK (Homo sapiens, UniProt Q9UM73)",ELISA kinase,,together with: ATP 300 µM,,IC50,inactive
CCCCCSc1nc2c([nH]1)c(=O)n(C)c(=O)n2C,"PGR (Homo sapiens, UniProt P06401)","reporter gene, antagonist, MMTV-luciferase",T47D/A1-2,"10 µM, 24 h, together with: 5 nM progesterone",baseline: maximal activity,remaining activity,58%
CN(C)c1ccc(NC(=S)N(C)c2ccccc2)cc1,"Alpha-synuclein (SNCA, Homo sapiens, UniProt P37840)","fibril formation, ThT fluorescence kinetics",,"100 µM, α-syn 2 µM, plateau phase",baseline: DMSO vehicle,maximum ThT fluorescence,17 ± 3%
CN1CCN(CC(=O)N2N=C3/C(=C/c4ccccc4)CCCC3C2c2ccccc2)CC1 (mixture of isomers),"ALOX15 (Homo sapiens, UniProt P16050)",activator,,"10 µM, together with: arachidonic acid 100 µM",baseline: no activator,lag phase change,110 s
CCCN(CC(=O)N(CCC)CC(=O)N(CCC)CC(=O)N(CCC)CC(=O)N(CCCn1cc(CN2CCN(c3cc(Nc4cc(Nc5ccc6ccccc6n5)ccn4)nc(C)n3)CC2)nn1)CC(N)=O)C(=O)CCCOc1cc(-c2nc3cc(N)ccc3[nH]2)cc(-c2nc3cc(N)ccc3[nH]2)c1,"T1, miRNA, hairpin closed by GAAA loop (Homo sapiens)",microscale thermophoresis,,,,Kd,190 nM
O=C(Nc1ccc(C(=O)Nc2ccc(C(=O)Nc3ccc(S(=O)(=O)O)c4cc(S(=O)(=O)O)cc(S(=O)(=O)O)c34)cc2)cc1)Nc1ccc(C(=O)Nc2ccc(C(=O)Nc3ccc(S(=O)(=O)O)c4cc(S(=O)(=O)O)cc(S(=O)(=O)O)c34)cc2)cc1,"Neutrophil elastase (ELANE, Homo sapiens, UniProt P08246)",substrate S-1384 hydrolysis,,"pH 7.4, 37 °C, enzyme 200 nM",,Km,262 ± 33.4 µM
CCCCSc1nc2c([nH]1)c(=S)n(C)c(=S)n2C,"Nr3c1 (Rattus norvegicus, UniProt P06536)","reporter gene, antagonist, MMTV-luciferase",T47D/A1-2,"10 µM, 24 h, together with: 5 nM dexamethasone",baseline: maximal activity,remaining activity,91%
OCc1ccccc1S[C@@H]1O[C@H](CO)[C@H](O)[C@H](O)[C@H]1O,"SLC5A2 (Homo sapiens, UniProt P31639)","membrane depolarization, substrate, FRET",CHO expressing hSGLT2,10 µM,baseline: non-transfected CHO cells,fluorescence ratio,1.32
CC(=O)[C@]12NC(C)(C)C[C@@]1(C)C(=O)C1=C2c2c(c3c4n2C(C)(C)CC2=C4[C@@]4(CC(C)(C)N[C@@](C)(C4)C2=O)CC3(C)C)C(=O)C(C)(C)N1 (racemic),"OPRD1 (Homo sapiens, UniProt P41143)","agonist, cAMP",CHO,concentration not given,,agonist activity,inactive
CC(C)[C@H](NC(=O)[C@H](CCCCN)NC(=O)[C@H](C)NC(=O)[C@H](CCCCN)NC(=O)CNC(=O)[C@H](CS)NC(=O)[C@@H](NC(=O)[C@H](CCCCN)NC(=O)[C@@H](N)CO)[C@@H](C)O)C(=O)N[C@H](C(=O)NCC(=O)N[C@@H](CCCNC(=N)N)C(=O)N[C@@H](Cc1c[nH]c2ccccc12)C(=O)N[C@@H](CCCCN)C(=O)O)[C@@H](C)O,"TPM1/ACTA1, with F-actin (Oryctolagus cuniculus, UniProt P58772+P68135)","binding, LSPR",F-actin-tropomyosin filament,pH 7.0,,koff,0.02 ± 0.00135 s⁻¹
CC1=C(/C=C/C(C)=C/C=C/C(C)=C/C=O)C(C)(C)CCC1,"CNGA1 (Bos taurus, UniProt Q00194)","ion current, inhibitor, inside-out patch clamp",,"400 nM, together with: cGMP 2 mM",,slow time constant of inhibition,1670 s
N=C(N)NCCC[C@H](NC(=O)[C@H](CC(=O)O)NC(=O)[C@@H]1CSCC(=O)NCC(=O)N[C@@H](Cc2c[nH]cn2)C(=O)N[C@H](Cc2ccccc2)C(=O)N[C@@H](CCCNC(=N)N)C(=O)N[C@H](Cc2c[nH]c3ccccc23)C(=O)N1)C(=O)N[C@@H](Cc1ccccc1)C(=O)NCC(N)=O,"MC5R (Homo sapiens, UniProt P33032)",cAMP accumulation,HEK293 expressing MC5R,concentration not given,,functional activity,inactive
CCCCCCCCNP(=O)(OCCCCCCCC)O[C@@H]1O[C@H](CO)[C@@H](O)[C@H](O)[C@H]1F (mixture of isomers),"GBA1 (Homo sapiens, UniProt P04062)","enzyme activity, irreversible inhibitor",,"pH 5.5, 37 °C, together with: 2,4-dinitrophenyl beta-D-glucopyranoside",,inactivation rate constant,7.45 min⁻¹
